Assay results of several laboratories.
Organism: Staphylococcus aureus

Structure (SMILES) = CCn1c(-c2ccc(-c3ccc(OC)cc3)cc2)c(-c2ccc(-c3ccc(OC)cc3)cc2)n(CC)c1=[Se]; assay = microbial growth, broth dilution; system = ATCC700699 VISA; conditions = 24 h, drug-resistant strain; MIC = > 40 µM
Structure (SMILES) = CC[C@H](C)[C@H](N)C(=O)N[C@@H](CCCNC(=N)N)C(=O)N[C@H](C(=O)N[C@@H](Cc1c[nH]c2ccccc12)C(=O)N[C@@H](CCCCN)C(=O)N[C@@H](CCCCN)C(=O)N[C@H](C(=O)N[C@H](C(=O)N[C@@H](CCCNC(=N)N)C(=O)N[C@@H](CCCCN)C(=O)N[C@@H](Cc1c[nH]c2ccccc12)C(=O)N[C@@H](CCCCN)C(=O)N[C@@H](C)C(=O)N[C@H](C(=O)N[C@@H](Cc1c[nH]c2ccccc12)C(=O)N[C@@H](Cc1c[nH]cn1)C(N)=O)[C@@H](C)CC)C(C)C)[C@@H](C)CC)C(C)C; assay = broth dilution; system = ATCC 25923, Mueller-Hinton broth; conditions = 24 h, 37 °C; MIC = 25 µM
Structure (SMILES) = CC(C)C[C@@H](NC(=O)[C@@H](CCCNC(=N)N)NC(=O)[C@H](N)CCCNC(=N)N)C(=O)N[C@H](CC(C)C)C(=O)N[C@H](CCCNC(=N)N)C(=O)N[C@H](CCCCN)C(=O)N[C@H](CC(C)C)C(=O)N[C@H](CCCCN)C(=O)NCC(=O)N[C@H](CCCCN)C(=O)N[C@H](CCCCN)C(=O)N[C@H](CC(C)C)C(=O)N[C@H](Cc1ccc(O)cc1)C(=O)N[C@H](CC(C)C)C(=O)N[C@H](Cc1ccc(O)cc1)C(=O)N[C@H](Cc1ccccc1)C(=O)N[C@H](CCCCN)C(=O)N[C@H](CC(C)C)C(=O)N[C@H](CCC(N)=O)C(=O)N[C@H](CC(C)C)C(=O)N[C@H](CC(C)C)C(=O)N[C@H](CCCCN)C(=O)N[C@H](CCCCN)C(N)=O; system = KCTC 1621, Mueller-Hinton broth; conditions = added: 150 mM NaCl; MIC = 32 µM
Structure (SMILES) = CN[C@H](CC(C)C)C(=O)N[C@H]1C(=O)N[C@@H](CC(N)=O)C(=O)N[C@H]2C(=O)N[C@H]3C(=O)N[C@H](C(=O)N[C@H](C(=O)O)c4cc(O)cc(O)c4-c4cc3ccc4O)[C@H](O)c3ccc(c(Cl)c3)Oc3cc2cc(c3O[C@@H]2O[C@H](CO)[C@@H](O)[C@H](O)[C@H]2O[C@H]2C[C@](C)(NCc3ccc(OCc4cn(CC(=O)N[C@H](C(=O)N[C@@H](CCN)C(=O)N[C@H]5CCNC(=O)[C@H]([C@@H](C)O)NC(=O)[C@H](CCN)NC(=O)[C@H](CCN)NC(=O)[C@H](CC(C)C)NC(=O)[C@@H](CC(C)C)NC(=O)[C@H](CCN)NC5=O)[C@@H](C)O)nn4)c(OC)c3)[C@H](O)[C@H](C)O2)Oc2ccc(cc2Cl)[C@H]1O; system = LIM-2 VISA; MIC = 0.76 µM
Structure (SMILES) = N=C(N)NCCC[C@@H]1NC(=O)[C@H](CCCNC(=N)N)NC(=O)[C@@H](CCCNC(=N)N)NC(=O)[C@@H](CCCNC(=N)N)NC(=O)[C@@H](C(c2ccccc2)c2ccccc2)NC(=O)[C@H](Cc2c[nH]c3ccccc23)NC(=O)[C@@H](C(c2ccccc2)c2ccccc2)NC1=O; system = 1195201, multidrug-resistant; MIC = 8 µg/mL
Structure (SMILES) = CN[C@@H]1[C@H](O)[C@H](NC)[C@H]2O[C@]3(O)[C@H](O[C@@H]2[C@H]1O)O[C@H](C)C[C@H]3NC(=O)Cc1cc(Cl)ccn1; assay = microbial growth, broth dilution; system = 8325; MIC = 12.5 µg/mL
Structure (SMILES) = CC(C)CCCCCCCCC/C=C/C(=O)N[C@@H](CC(=O)O)C(=O)N[C@H]1CNC(=O)[C@@H]2CCCN2C(=O)[C@H](C(C)C)NC(=O)[C@@H](CN)NC(=O)CNC(=O)[C@H](CC(=O)O)NC(=O)CNC(=O)[C@H](CC(=O)O)NC(=O)[C@H](CC(=O)O)NC(=O)[C@H]2CCCCN2C1=O; assay = broth microdilution; system = BR-VRSA strain 880, Mueller-Hinton broth, Mg2+ 10 mg/L; conditions = 16 h, added: Ca2+ 10 mM; MIC = 1 µg/mL
Structure (SMILES) = CC[C@H](C)[C@H](NC(=O)[C@@H]1CCCN1C(=O)CNC(=O)[C@H](CC(C)C)NC(=O)[C@H](CCCCN)NC(=O)[C@H](CCCNC(=N)N)NC(=O)[C@H](Cc1c[nH]c2ccccc12)NC(=O)[C@H](C)NC(=O)[C@H](CC(N)=O)NC(=O)[C@H](CCCCN)NC(=O)[C@H](CC(C)C)NC(=O)[C@H](CCCCN)NC(=O)[C@H](CC(N)=O)NC(=O)[C@H](CCCNC(=N)N)NC(=O)[C@H](C)NC(=O)[C@H](CCCNC(=N)N)NC(=O)[C@H](CCCNC(=N)N)NC(=O)[C@H](Cc1ccccc1)NC(=O)[C@H](Cc1c[nH]c2ccccc12)NC(=O)CN)C(=O)N[C@H](C(=O)NCC(=O)N1CCC[C@H]1C(=O)N[C@@H](CC(C)C)C(=O)N[C@@H](CC(C)C)C(=O)N[C@H](C(=O)N[C@@H](CCCNC(=N)N)C(=O)O)[C@@H](C)O)C(C)C; assay = broth microdilution; system = ATCC 25923; MIC = 0.94 log10 µg/mL
Structure (SMILES) = CN[C@H](CC(C)C)C(=O)N[C@H]1C(=O)N[C@@H](CC(N)=O)C(=O)N[C@H]2C(=O)N[C@H]3C(=O)N[C@H](C(=O)N[C@H](C(=O)N[C@@H](CCCNC(=N)N)C(N)=O)c4cc(O)cc(O)c4-c4cc3ccc4O)[C@H](O)c3ccc(c(Cl)c3)Oc3cc2cc(c3O[C@@H]2O[C@H](CO)[C@@H](O)[C@H](O)[C@H]2O[C@H]2C[C@](C)(NCc3ccc(OCc4cn(CC(=O)N[C@H](C(=O)N[C@@H](CCN)C(=O)N[C@H]5CCNC(=O)[C@H]([C@@H](C)O)NC(=O)[C@H](CCN)NC(=O)[C@H](CCN)NC(=O)[C@H](CC(C)C)NC(=O)[C@@H](CC(C)C)NC(=O)[C@H](CCN)NC5=O)[C@@H](C)O)nn4)c(OC)c3)[C@H](O)[C@H](C)O2)Oc2ccc(cc2Cl)[C@H]1O; system = MRSA USA300; MIC = 0.358 µM
Structure (SMILES) = CC[C@H](C)[C@H](NC(=O)[C@H](CCCNC(=N)N)NC(=O)[C@H](CCC(N)=O)NC(=O)[C@@H](NC(=O)[C@@H](NC(=O)[C@H](CCCNC(=N)N)NC(=O)[C@H](CCCCN)NC(=O)[C@H](Cc1ccccc1)NC(=O)CN)[C@@H](C)CC)C(C)C)C(=O)N[C@@H](CCCCN)C(=O)N[C@@H](CC(=O)O)C(=O)N[C@@H](Cc1ccccc1)C(=O)N[C@@H](CC(C)C)C(=O)N[C@@H](CCCNC(=N)N)C(=O)N[C@@H](CC(N)=O)C(=O)N[C@@H](CC(C)C)C(=O)N[C@H](C(N)=O)C(C)C; system = USA300 LAC; MIC = 2.5 µM
Structure (SMILES) = CC1COC2=C1C(=O)C(=O)c1c2ccc2c1C(OC(=O)CNC(=O)C(N)CO)CCC2(C)C (mixture of isomers); system = GDMCC 1.122; conditions = 48 h; MIC = 31 µM
Structure (SMILES) = CC[C@H](C)[C@H](NC(=O)[C@H](CCCCN)NC(=O)[C@@H](NC(=O)[C@@H](NC(=O)[C@H](CC(C)C)NC(=O)[C@H](CCCNC(=N)N)NC(=O)[C@@H](NC(=O)[C@H](CC(C)C)NC(=O)[C@H](CCCNC(=N)N)NC(=O)CNC(=O)[C@H](Cc1ccccc1)NC(=O)[C@@H](N)CCCNC(=N)N)[C@@H](C)CC)[C@@H](C)CC)C(C)C)C(=O)N[C@@H](C)C(=O)N[C@@H](CCCNC(=N)N)C(=O)N[C@@H](CCCNC(=N)N)C(=O)N[C@@H](C)C(=O)N[C@@H](Cc1c[nH]cn1)C(=O)N[C@@H](CCCNC(=N)N)C(=O)N[C@@H](C)C(=O)N[C@@H](CCCNC(=N)N)C(=O)N1CCC[C@H]1C(=O)N[C@@H](C)C(=O)N[C@H](C(=O)N[C@@H](CCCCN)C(=O)N[C@@H](C)C(=O)N[C@@H](C)C(=O)N[C@@H](CO)C(=O)N[C@@H](CC(N)=O)C(=O)N[C@H](C(=O)N[C@@H](C)C(=O)N[C@@H](CCC(=O)O)C(=O)N[C@@H](CC(C)C)C(=O)N[C@@H](C)C(=O)N[C@@H](Cc1c[nH]cn1)C(=O)NCC(=O)N[C@@H](CCC(=O)O)C(N)=O)C(C)C)C(C)C; assay = broth microdilution; conditions = 18 h, 37 °C; MIC = 0.999 µM
Structure (SMILES) = CC[C@H](C)[C@H](NC(=O)[C@@H](CCCNC(=N)N)NC(=O)[C@H](CCCNC(=N)N)NC(=O)[C@@H]1CCCN1C(=O)[C@@H]1CCCN1C(=O)[C@H](CCCNC(=N)N)NC(=O)[C@@H]1CCCN1C(=O)[C@H](CCCNC(=N)N)NC(=O)[C@@H]1CCCN1C(=O)[C@@H](NC(=O)[C@H](Cc1ccc(O)cc1)NC(=O)[C@@H]1CCCN1C(=O)[C@@H]1CCCN1C(=O)[C@H](CCCCN)NC(=O)[C@H](CC(=O)O)NC(=O)[C@@H](N)C(C)C)C(C)(C)C)C(=O)N[C@@H](Cc1ccc(O)cc1)C(=O)N[C@@H](CC(N)=O)C(=O)N[C@H](CCCNC(=N)N)C(N)=O; assay = broth microdilution; system = DSM 6247; conditions = 18 h, 37 °C, 25% MHB2; MIC = > 128 µg/mL

For quick reference, copied from above:
Structure (SMILES) = CC(C)C[C@@H](NC(=O)[C@@H](CCCNC(=N)N)NC(=O)[C@H](N)CCCNC(=N)N)C(=O)N[C@H](CC(C)C)C(=O)N[C@H](CCCNC(=N)N)C(=O)N[C@H](CCCCN)C(=O)N[C@H](CC(C)C)C(=O)N[C@H](CCCCN)C(=O)NCC(=O)N[C@H](CCCCN)C(=O)N[C@H](CCCCN)C(=O)N[C@H](CC(C)C)C(=O)N[C@H](Cc1ccc(O)cc1)C(=O)N[C@H](CC(C)C)C(=O)N[C@H](Cc1ccc(O)cc1)C(=O)N[C@H](Cc1ccccc1)C(=O)N[C@H](CCCCN)C(=O)N[C@H](CC(C)C)C(=O)N[C@H](CCC(N)=O)C(=O)N[C@H](CC(C)C)C(=O)N[C@H](CC(C)C)C(=O)N[C@H](CCCCN)C(=O)N[C@H](CCCCN)C(N)=O; system = KCTC 1621, Mueller-Hinton broth; conditions = added: 150 mM NaCl; MIC = 32 µM
Structure (SMILES) = CC[C@H](C)[C@H](NC(=O)[C@H](CCCCN)NC(=O)[C@@H](NC(=O)[C@@H](NC(=O)[C@H](CC(C)C)NC(=O)[C@H](CCCNC(=N)N)NC(=O)[C@@H](NC(=O)[C@H](CC(C)C)NC(=O)[C@H](CCCNC(=N)N)NC(=O)CNC(=O)[C@H](Cc1ccccc1)NC(=O)[C@@H](N)CCCNC(=N)N)[C@@H](C)CC)[C@@H](C)CC)C(C)C)C(=O)N[C@@H](C)C(=O)N[C@@H](CCCNC(=N)N)C(=O)N[C@@H](CCCNC(=N)N)C(=O)N[C@@H](C)C(=O)N[C@@H](Cc1c[nH]cn1)C(=O)N[C@@H](CCCNC(=N)N)C(=O)N[C@@H](C)C(=O)N[C@@H](CCCNC(=N)N)C(=O)N1CCC[C@H]1C(=O)N[C@@H](C)C(=O)N[C@H](C(=O)N[C@@H](CCCCN)C(=O)N[C@@H](C)C(=O)N[C@@H](C)C(=O)N[C@@H](CO)C(=O)N[C@@H](CC(N)=O)C(=O)N[C@H](C(=O)N[C@@H](C)C(=O)N[C@@H](CCC(=O)O)C(=O)N[C@@H](CC(C)C)C(=O)N[C@@H](C)C(=O)N[C@@H](Cc1c[nH]cn1)C(=O)NCC(=O)N[C@@H](CCC(=O)O)C(N)=O)C(C)C)C(C)C; assay = broth microdilution; conditions = 18 h, 37 °C; MIC = 0.999 µM
